Experimental data collected from several papers.
Every numbered part comes from another study and shows a few of its results, in no order. Substitutions count along the parent as printed.

Series 1
Target: RING finger protein unkempt homolog, zinc fingers 1-6, GST-SBP tag (UNK, Homo sapiens, UniProt Q9C0B0, residues 30-357)
UniProt Q9C0B0, sequence (30-357, looked up): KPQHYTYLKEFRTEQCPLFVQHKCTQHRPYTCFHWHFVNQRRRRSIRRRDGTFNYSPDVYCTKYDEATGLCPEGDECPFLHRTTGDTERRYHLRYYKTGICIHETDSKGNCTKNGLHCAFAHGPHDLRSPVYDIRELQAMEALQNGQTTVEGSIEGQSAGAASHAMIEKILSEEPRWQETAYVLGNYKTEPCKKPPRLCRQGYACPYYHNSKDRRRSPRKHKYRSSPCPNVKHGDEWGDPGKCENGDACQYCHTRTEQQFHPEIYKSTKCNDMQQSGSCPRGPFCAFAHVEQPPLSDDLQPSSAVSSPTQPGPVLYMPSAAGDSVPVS
Technique: RNA Bind-n-Seq
Molecule type: RNA
Sample: in vitro
Tested at: not given
Setting: RNA with constant flanks, human and mouse sites, ends assumed
Baseline: input RNA pool
Direction: higher = stronger binding
Measurement: bound/input enrichment
Constant ends, left off below: GGGAGUUCUACAGUCCGACGAUC … CAACAGAGGAUUGAGCAUCA
GCAGAUGCUGAGGUUGCCAGGAGGAAAUCAGUCCCAUCAGAGGCUAUGCUUGCAGAGAGUAGUACCAGUUUGCCACCUGUCGCUGAUGAAAGCCCAGUCACUGUAAAACCAGAUAGUCAA: 0.164 ratio
GCCAUCUAUGAUAUCUGUCGUAGAAACCUCGACAUUGAGCGCCCAACCUACACUAACCUAAACAGGUUGAUAGGUCAAAUUGUGUCUUCCAUCACUGCUUCCCUCAGAUUUGAUGGGGCC: 0.135 ratio
CCCCAUCUCUUCCCUGUGGGUCAUCAGAGUUAGGUACCUAGCUCUGACAUGGCUCUUUGCCUCUAUCUAGGUGAGGGUCCCGAUGUCCUGGUGUACAGCUUGGACUUUGGUGGGCAUCUG: 0.136 ratio
GAUUACUUCAAAUUUGAUGUCUUUUAUUGCAUGAACAUUACGGAUAUUGAUGACAAGAUCAUCAAGAGGGCCCGGCAGAACCACCUGUUCGAGCAGUAUCGGGAGAAGAGGCCUGAAGCG: 0.217 ratio
CCAAUUGACAACGGUUCAAAAAUCACCAACUACCUUUUAGAGUGGGAUGAGGGAAAAAGAAAUAGUGGUUUCAGACAGUGCUUCUUCGGGAGCCAGAAGCACUGCAAGUUGACAAAGCUU: 0.657 ratio
CUUACCUCUUACAAAAAAAAGAAAAAAAAAGAAAAAGUUCAUUUCUUCAUUCUGUUUGUAUCUAGCGAAGCUGAAUGUCAGAAGCCCCUCUGUCCACACACAAAGUCUGCAUGUAUUGGU: 0.414 ratio
UAUAUGACUGAUGGGAUGUUACUUCGUGAAGCUAUGAAUGAUCCCCUCCUGGAGCGUUAUGGUGUAAUAAUUCUUGAUGAGGCUCAUGAGAGGACACUGGCUACAGAUAUUCUAAUGGGU: 0.108 ratio
AAGGCGCGGAUAAAAGCAAAGGCAAUAGCGAUAAACACAUUUUUGCCAAAGAAUGGAUUUAGACCUCUGGACAUGAACCUUUAUACCCAGCAGCGCUAUGCUACAUCGUUUUACUUACCU: 0.212 ratio
UGUGUGGCCAGAGCUUGCACAGGAGGAAAGCAGGCUGCUGAAUUUAGUCACUGAUCUCUAUUAGCGGUAGCCUAAGGCUAUGCUGAGGUUUAUAUCCCAUUUGUAUUGUUGCAGCUCAAA: 0.418 ratio

Series 2
Target: CCNE2, cyclin fold, Cln2 fusion (human)
Technique: yeast growth competition, sequencing
Sample: yeast
Setting: weak parent motif
Baseline: not given
Direction: higher = stronger binding
Measurement: normalised enrichment score
Starting sequence: CDC6 docking peptide (human); TLKGRRLVFDNQL; partner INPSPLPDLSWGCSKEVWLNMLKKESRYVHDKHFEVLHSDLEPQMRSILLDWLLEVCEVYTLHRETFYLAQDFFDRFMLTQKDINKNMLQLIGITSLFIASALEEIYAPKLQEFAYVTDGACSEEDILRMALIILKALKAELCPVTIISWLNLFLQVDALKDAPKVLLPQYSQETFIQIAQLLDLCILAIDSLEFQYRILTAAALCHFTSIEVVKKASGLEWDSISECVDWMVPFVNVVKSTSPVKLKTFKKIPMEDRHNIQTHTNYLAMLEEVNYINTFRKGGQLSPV
T1F: 0.000932
T1Y: 0.533
G4I: 1.05
L2E: 0.244
V8A: -0.238
F9Q: -0.18
F9R: 0.413

Series 3
Target: RNA binding protein fox-1 homolog 2, RRM domain, GST-SBP tag (RBFOX2, Homo sapiens, UniProt O43251-10, residues 100-194)
Technique: RNA Bind-n-Seq
Molecule type: RNA
Sample: in vitro
Tested at: 365 nM
Setting: natural RNA segment, single round, ends assumed
Baseline: no-protein control
Direction: higher = stronger binding
Measurement: RBNS enrichment (R)
Constant ends, left off below: GGGAGUUCUACAGUCCGACGAUC … UGGAAUUCUCGGGUGCCAA
Target sequence (chain): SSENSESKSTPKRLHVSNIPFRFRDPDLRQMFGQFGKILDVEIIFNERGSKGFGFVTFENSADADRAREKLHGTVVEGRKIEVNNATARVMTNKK
CUAUGUUCUUGACUUUGUCUCUCCUUUCCGAGUCAAUGGUGGGUUACACUGAUCUUGUUCCACUGAUUACUCUCUCUGACGAGUCCAUCACCUGCAACUUAAAUGAACAA: 0.478
AAUUCUGAGGAACCUUGUGCCCAGUUGUUACAAAGUUUAAGCUUUGAACCUAACCUGCAUCCCAUUUCCAGCCUCUUUUCAAGCUGAGAAAAAAACAAAAAACACGUUUG: 0.528
AACUUCAUCACAGUGUUGAUGUUGGACACAUAGAUGGUGAUGGCAAAGGUUUAGAACACAUUAUUUUCAAAGACUAAAUCUAAAACCCAGAGUAAACAUCAAUGCUCAGA: 0.446
CUCAUUCACUGUCCUGGCUUUUAUUUAAAGAAAAAAAAGGCAGUAUUCCCUUUUUAAAUGAGCUUUCAGGAAGUUGCUGAGAAAUGGGGUGGAAUAGGGAACUGUAAUGG: 0.454
CACAGUGGGGAGUCAAUGUCCAGCCCUACUCCGGGUCCCCAGCCAACCUGGCCGUCUACACAGCCCUUCUGCAACCUCACGACCGGAUCAUGGGGCUGGACCUGCCCGAU: 0.477
AGUGCUCAAAAACAUCUGAUGACUGACUAAAGAUGCUAGGCGUGACACCGUUCCCUCCAAAAGCAGACCUCGGAAUCACUGCCAAAUAAGUAACUAGACGUUUACAGGCC: 0.188
GGAUUGACAUUGGAUGGGGGAGGUAGGAGGCACAUCAAUAAAAAGGAAACCACCGAGCUGAAUUGAAUUUGCCCUGUGUCAUUCCACCUCCUGGUUUUUUGUUUCAAGUA: 0.713

Further values, each from its own experiment
PhoQ, residues 284 288 289 292 302 303 TTSMTC — fold induction (PhoP, residues 12 14 15 18 19 LHTVM (Escherichia coli, UniProt P23836); Sort-seq, measured: YFP reporter; E. coli; PhoQ-PhoP variant library, added: 10 µM Mg2+; baseline: high Mg2+ state, higher = stronger signaling): 17.4

Excerpt of the above (series 1):
GAUUACUUCAAAUUUGAUGUCUUUUAUUGCAUGAACAUUACGGAUAUUGAUGACAAGAUCAUCAAGAGGGCCCGGCAGAACCACCUGUUCGAGCAGUAUCGGGAGAAGAGGCCUGAAGCG: 0.217 ratio
CUUACCUCUUACAAAAAAAAGAAAAAAAAAGAAAAAGUUCAUUUCUUCAUUCUGUUUGUAUCUAGCGAAGCUGAAUGUCAGAAGCCCCUCUGUCCACACACAAAGUCUGCAUGUAUUGGU: 0.414 ratio
CCCCAUCUCUUCCCUGUGGGUCAUCAGAGUUAGGUACCUAGCUCUGACAUGGCUCUUUGCCUCUAUCUAGGUGAGGGUCCCGAUGUCCUGGUGUACAGCUUGGACUUUGGUGGGCAUCUG: 0.136 ratio
GCCAUCUAUGAUAUCUGUCGUAGAAACCUCGACAUUGAGCGCCCAACCUACACUAACCUAAACAGGUUGAUAGGUCAAAUUGUGUCUUCCAUCACUGCUUCCCUCAGAUUUGAUGGGGCC: 0.135 ratio
